Measurements pooled from the literature.
Numbered parts are unrelated; each lists some results of a single study. Substitutions count along the parent as printed.
Chain of UniProt P42336 (whole entry, unmodified, looked up): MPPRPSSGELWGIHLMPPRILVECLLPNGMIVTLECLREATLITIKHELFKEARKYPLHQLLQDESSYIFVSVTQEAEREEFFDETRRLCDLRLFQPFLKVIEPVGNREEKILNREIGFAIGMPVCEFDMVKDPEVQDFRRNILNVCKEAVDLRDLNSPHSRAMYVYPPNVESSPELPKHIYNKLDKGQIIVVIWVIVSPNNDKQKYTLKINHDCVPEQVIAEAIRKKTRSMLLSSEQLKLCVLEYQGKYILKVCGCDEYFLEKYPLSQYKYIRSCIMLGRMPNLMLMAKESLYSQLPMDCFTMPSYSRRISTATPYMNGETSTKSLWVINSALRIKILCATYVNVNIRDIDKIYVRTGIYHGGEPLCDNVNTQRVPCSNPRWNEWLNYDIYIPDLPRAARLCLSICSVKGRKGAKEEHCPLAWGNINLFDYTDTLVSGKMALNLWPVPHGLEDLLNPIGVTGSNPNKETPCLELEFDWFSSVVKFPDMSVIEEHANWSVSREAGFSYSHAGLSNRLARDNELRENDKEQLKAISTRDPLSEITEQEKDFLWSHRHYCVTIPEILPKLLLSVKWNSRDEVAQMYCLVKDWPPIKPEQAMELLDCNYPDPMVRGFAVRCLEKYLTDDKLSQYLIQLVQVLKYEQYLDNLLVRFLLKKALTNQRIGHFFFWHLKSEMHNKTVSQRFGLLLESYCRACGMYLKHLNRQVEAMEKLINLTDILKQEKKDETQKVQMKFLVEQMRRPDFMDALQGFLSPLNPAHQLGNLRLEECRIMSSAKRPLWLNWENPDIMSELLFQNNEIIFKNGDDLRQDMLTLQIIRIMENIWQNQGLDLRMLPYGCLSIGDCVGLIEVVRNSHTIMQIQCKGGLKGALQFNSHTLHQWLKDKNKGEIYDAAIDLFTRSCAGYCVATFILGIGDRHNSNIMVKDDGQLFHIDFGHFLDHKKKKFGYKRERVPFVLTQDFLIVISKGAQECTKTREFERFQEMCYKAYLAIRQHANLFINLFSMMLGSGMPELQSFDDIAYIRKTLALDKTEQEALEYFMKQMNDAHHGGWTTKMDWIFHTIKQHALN
Chain of UniProt Q9Y2H1 (whole entry, looked up): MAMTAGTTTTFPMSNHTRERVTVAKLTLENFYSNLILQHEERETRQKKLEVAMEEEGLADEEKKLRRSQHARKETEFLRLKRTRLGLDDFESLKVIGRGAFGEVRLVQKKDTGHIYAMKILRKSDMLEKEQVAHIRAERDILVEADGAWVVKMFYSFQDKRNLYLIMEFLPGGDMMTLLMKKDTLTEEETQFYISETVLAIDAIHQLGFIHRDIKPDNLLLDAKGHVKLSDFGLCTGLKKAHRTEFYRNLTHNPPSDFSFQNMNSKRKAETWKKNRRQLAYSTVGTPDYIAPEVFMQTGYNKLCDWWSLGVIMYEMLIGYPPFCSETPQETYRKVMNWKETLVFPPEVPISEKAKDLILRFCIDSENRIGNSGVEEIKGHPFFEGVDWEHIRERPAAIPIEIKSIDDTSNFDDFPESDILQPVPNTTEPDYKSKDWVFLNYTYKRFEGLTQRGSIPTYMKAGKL
Chain of UniProt P21127 (whole entry, looked up): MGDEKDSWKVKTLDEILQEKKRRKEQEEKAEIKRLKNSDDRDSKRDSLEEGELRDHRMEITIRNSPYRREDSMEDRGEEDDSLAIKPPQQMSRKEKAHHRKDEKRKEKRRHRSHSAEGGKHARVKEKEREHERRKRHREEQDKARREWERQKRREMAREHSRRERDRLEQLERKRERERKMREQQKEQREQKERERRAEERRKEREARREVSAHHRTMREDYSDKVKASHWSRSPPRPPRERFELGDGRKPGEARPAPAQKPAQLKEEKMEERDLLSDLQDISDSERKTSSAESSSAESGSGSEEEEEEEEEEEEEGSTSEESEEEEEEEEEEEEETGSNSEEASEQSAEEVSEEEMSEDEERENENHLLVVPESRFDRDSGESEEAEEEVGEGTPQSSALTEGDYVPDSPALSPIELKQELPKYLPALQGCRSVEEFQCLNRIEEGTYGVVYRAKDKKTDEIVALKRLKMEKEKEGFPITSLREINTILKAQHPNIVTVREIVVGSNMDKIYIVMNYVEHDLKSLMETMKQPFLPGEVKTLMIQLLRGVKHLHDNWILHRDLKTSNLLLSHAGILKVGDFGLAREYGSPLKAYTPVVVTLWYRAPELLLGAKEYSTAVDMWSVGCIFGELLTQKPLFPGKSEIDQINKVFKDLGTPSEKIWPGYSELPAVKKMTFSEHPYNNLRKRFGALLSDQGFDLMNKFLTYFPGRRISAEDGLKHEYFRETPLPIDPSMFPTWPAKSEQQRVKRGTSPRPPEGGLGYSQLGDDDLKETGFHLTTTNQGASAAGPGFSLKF
Chain of UniProt Q8N568 (whole entry, looked up): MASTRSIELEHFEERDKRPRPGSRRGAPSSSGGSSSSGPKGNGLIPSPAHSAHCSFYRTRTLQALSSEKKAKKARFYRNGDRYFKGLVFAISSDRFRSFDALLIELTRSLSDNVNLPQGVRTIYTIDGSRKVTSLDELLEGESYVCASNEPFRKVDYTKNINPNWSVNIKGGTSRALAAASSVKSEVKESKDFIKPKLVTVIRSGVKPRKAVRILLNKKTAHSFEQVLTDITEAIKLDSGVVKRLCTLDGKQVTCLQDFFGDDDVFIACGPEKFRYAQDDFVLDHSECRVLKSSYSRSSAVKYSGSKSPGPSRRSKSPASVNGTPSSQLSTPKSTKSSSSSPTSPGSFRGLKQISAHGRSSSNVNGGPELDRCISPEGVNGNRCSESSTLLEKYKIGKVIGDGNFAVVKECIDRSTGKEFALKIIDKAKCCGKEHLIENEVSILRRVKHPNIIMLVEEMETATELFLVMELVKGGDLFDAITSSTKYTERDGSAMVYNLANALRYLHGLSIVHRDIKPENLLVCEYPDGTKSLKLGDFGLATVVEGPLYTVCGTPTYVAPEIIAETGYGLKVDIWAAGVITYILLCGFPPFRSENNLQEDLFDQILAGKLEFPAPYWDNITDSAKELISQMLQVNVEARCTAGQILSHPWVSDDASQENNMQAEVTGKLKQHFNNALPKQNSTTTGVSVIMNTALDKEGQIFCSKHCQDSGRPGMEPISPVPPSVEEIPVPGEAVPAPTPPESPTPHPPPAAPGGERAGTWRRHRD
Chain of UniProt P50750 (whole entry, looked up): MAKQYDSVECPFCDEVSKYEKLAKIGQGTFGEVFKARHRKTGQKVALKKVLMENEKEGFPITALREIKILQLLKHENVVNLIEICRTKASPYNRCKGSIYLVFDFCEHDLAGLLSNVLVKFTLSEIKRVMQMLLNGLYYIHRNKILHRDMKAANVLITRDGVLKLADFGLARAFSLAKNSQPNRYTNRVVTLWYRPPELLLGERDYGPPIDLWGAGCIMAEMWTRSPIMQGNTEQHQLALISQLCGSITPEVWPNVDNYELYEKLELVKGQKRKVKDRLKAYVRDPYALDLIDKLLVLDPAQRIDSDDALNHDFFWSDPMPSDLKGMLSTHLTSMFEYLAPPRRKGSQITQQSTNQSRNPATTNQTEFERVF
Chain of UniProt P49674 (whole entry, looked up): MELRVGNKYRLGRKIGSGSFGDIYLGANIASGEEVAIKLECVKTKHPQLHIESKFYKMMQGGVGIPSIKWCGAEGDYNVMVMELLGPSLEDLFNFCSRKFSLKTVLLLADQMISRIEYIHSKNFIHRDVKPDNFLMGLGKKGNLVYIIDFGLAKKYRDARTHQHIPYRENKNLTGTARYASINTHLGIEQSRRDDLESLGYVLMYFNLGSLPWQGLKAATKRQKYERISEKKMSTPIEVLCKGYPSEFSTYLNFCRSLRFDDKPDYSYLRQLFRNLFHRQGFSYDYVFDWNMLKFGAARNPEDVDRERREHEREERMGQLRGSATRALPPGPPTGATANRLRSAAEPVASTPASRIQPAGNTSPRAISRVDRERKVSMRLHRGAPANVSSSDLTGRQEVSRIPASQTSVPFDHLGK
Chain of UniProt Q8TDX7 (whole entry, looked up): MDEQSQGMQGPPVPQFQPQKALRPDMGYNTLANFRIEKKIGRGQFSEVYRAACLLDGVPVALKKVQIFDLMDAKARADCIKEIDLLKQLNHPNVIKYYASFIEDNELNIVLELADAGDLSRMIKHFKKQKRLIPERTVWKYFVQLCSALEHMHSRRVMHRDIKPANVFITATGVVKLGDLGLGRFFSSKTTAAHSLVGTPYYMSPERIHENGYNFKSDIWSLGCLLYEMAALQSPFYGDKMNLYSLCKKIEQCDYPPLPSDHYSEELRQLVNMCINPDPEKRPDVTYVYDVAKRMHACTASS
Chain of UniProt Q96GD4 (whole entry, looked up): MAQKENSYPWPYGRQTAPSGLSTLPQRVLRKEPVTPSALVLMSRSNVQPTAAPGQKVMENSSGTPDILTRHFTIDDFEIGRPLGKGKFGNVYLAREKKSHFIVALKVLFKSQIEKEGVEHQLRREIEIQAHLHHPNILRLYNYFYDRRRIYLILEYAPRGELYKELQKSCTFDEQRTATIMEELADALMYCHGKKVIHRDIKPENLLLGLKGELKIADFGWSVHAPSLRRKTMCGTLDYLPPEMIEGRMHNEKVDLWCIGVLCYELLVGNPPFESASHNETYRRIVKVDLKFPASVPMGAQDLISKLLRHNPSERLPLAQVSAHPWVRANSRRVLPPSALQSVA
Chain of UniProt Q8IW41 (whole entry, looked up): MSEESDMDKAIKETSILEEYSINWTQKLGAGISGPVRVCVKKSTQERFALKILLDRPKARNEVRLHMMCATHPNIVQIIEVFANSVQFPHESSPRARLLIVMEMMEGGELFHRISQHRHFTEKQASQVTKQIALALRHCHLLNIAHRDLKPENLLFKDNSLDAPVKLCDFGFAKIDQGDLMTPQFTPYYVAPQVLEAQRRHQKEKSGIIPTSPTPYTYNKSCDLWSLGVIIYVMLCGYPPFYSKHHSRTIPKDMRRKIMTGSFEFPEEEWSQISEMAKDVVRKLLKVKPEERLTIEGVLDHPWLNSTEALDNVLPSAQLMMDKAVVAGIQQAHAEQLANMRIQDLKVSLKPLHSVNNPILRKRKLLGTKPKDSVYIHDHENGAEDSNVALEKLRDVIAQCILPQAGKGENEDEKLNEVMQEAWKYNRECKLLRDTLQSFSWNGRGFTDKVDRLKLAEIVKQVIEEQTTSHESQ

Set 1
Target: Histone acetyltransferase KAT6A, winged helix 2, GST fusion (KAT6A, Homo sapiens, UniProt Q92794, residues 85-181)
Technique: protein binding microarray
Form: double-stranded DNA, one strand shown
Matrix: in vitro
Concentration: not given
Notes: 8-mer, flanks averaged, mean of 2 arrays, mostly near background
Baseline: not given
Reading: higher = stronger binding
Measurement: E-score
Target sequence (chain): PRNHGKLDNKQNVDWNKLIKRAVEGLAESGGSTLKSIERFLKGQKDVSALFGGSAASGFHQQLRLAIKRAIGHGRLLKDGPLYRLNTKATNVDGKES
Oligonucleotide = AATCGTGC; result = 0.0833
Oligonucleotide = ACACCCGT; result = -0.0783
Oligonucleotide = CGGTGTCA; result = 0.0287
Oligonucleotide = AATAATCA; result = -0.0225
Oligonucleotide = CTAGGTCC; result = 0.0167
Oligonucleotide = TGAATAAA; result = 0.049
Oligonucleotide = ATCGGGCC; result = 0.109
Oligonucleotide = ACTTCGGC; result = 0.0617

Set 2
Target: OGT, full length, His-tagged (human)
Technique: phage display, sequencing
Matrix: in vitro
Concentration: 1 µg OGT
Notes: single substitutions, 15-mer displayed peptide, unchanged parent 16.7
Baseline: input library
Reading: higher = stronger binding
Measurement: fold enrichment
Starting sequence: peptide; NSEYMPQYQIIFAHQ
Variant = H14Y; result = 12 fold
Variant = Q9K; result = 8.43 fold
Variant = Q9Y; result = 3.53 fold
Variant = Y8A; result = 0.631 fold
Variant = Q9G; result = 1.04 fold
Variant = N1E; result = 18.8 fold
Variant = Q9R; result = 2.79 fold
Variant = P6F; result = 3.41 fold

Set 3
SMILES: CCC(=N\O)/C(C)=C/c1ccc(F)cc1
Effect on: cell-free assay
Technique: competition with immobilised ligand
Concentration: 1 µM
Measurement: remaining binding
target = CSNK1E (Homo sapiens, UniProt P49674); result = 99%
target = PRKACA (Homo sapiens, UniProt P17612); result = 78%
target = DCLK2 (Homo sapiens, UniProt Q8N568); result = 96%
target = NEK7 (Homo sapiens, UniProt Q8TDX7); result = 85%
target = PKN2 (Homo sapiens, UniProt Q16513); result = 80%
target = MAPKAPK5 (Homo sapiens, UniProt Q8IW41); result = 91%
target = STK38L (Homo sapiens, UniProt Q9Y2H1); result = 95%
target = Aurora kinase B (AURKB, Homo sapiens, UniProt Q96GD4); result = 68%
target = PIK3CA (Homo sapiens, UniProt P42336, H1047L); result = 100%
target = CDK11B (Homo sapiens, UniProt P21127); result = 89%
target = MAPK4 (Homo sapiens, UniProt P31152); result = 75%
target = PIK3CA (Homo sapiens, UniProt P42336, E545A); result = 76%
target = CDK9 (Homo sapiens, UniProt P50750); result = 93%

Set 4
Cell line: Huh-7
Concentration: 10 µM
Time: 24 h
Measurement: viability
SMILES = COC(=O)Nc1nc2ccc(C(=O)c3ccccc3)cc2[nH]1; result = 64.1%
SMILES = CC(N)[C@]12C[C@H]3C[C@H](C[C@H](C3)C1)C2 (stereo partly shown); result = 97.2%
SMILES = COc1ccc(NS(=O)(=O)c2ccc(N)cc2)nn1; result = 95.1%
SMILES = C=CCc1ccc(O)c(OC)c1; result = 87.7%
SMILES = CCCC(CCC)C(=O)O; result = 105%
